# Experimental data from different studies.
# Numbered parts are unrelated; each lists some results of a single study. Substitutions count along the parent as printed.

# Set 1
# Target: CCNA2, cyclin fold, Cln2 fusion (human)
# Technique: yeast growth competition, sequencing
# Sample: yeast
# Notes: weak parent motif
# Baseline: not given
# Reading: higher = stronger binding
# Starting sequence: E2F7 docking peptide (human); SSAQRRLEIPSGG
Substitution,normalised enrichment score
SSAQRRLEFPSGG [I9F],5.1
SSAQRRLELPSGG [I9L],0.8
SSAQRRLEIPSGA [G13A],0.569
SSAQARAEIPSGG [R5A L7A],-0.0774
SSAQKRLELPSGG [R5K I9L],0.429
SSAQARLEIPSGG [R5A],0.295
SSAARRLEIPSGG [Q4A],1.09
SSAQRRLEIASGG [P10A],0.41
SAAQRRLEIPSGG [S2A],0.258
SSAQRRLEIPAGG [S11A],0.289

# Set 2
# Target: PABPC1L2, full length, GST fusion (mouse, UniProt A0ABA7IW68)
# Technique: RNAcompete
# Molecule type: RNA
# Sample: in vitro
# Concentration: 20 nM
# Notes: 7-mer, probes averaged, single round
# Baseline: mean of 7-mers
# Reading: higher = stronger binding
# Residues (chain): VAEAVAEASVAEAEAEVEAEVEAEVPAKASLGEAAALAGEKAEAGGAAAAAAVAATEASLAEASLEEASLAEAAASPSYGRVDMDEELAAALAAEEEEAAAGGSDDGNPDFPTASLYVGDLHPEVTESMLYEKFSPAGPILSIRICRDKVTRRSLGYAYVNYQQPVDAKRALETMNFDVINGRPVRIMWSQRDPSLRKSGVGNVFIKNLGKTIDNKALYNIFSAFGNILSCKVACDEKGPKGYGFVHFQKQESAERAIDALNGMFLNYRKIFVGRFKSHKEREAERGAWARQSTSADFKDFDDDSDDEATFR
Sequence,7-mer Z-score
CGACAGU,0.0678
ACAUUAU,0.0478
UACGUCU,-0.34
UUUCACU,-0.347
CGUGUCG,-0.309
CGACUCU,-0.364
CCGCUUC,-0.353
ACAAAAU,2.65
AUAACCC,-0.18
CUACGCG,-0.345
CGCUCAA,-0.157
CCUGGAU,-0.103
ACAGUGU,-0.0482
UUAAAUC,0.164
AGACAGA,0.0623
GCCAUUU,-0.229
UUUUGUU,-0.407
ACAUUAG,0.104
AAUACGG,0.423
UCUUCAA,-0.269
CUAAGCA,-0.148
CAGAUCA,0.186
GAUGCUC,-0.324
CCGUGGG,-0.0663
GCUGCUA,-0.188

# Set 3
# Target: RNA binding protein fox-1 homolog 2, RRM domain, GST-SBP tag (RBFOX2, Homo sapiens, UniProt O43251-10, residues 100-194)
# Technique: RNA Bind-n-Seq
# Molecule type: RNA
# Sample: in vitro
# Concentration: 365 nM
# Notes: natural RNA segment, single round, ends assumed
# Baseline: no-protein control
# Reading: higher = stronger binding
# Shared flanks, not repeated: GGGAGUUCUACAGUCCGACGAUC … UGGAAUUCUCGGGUGCCAA
# Target sequence (chain): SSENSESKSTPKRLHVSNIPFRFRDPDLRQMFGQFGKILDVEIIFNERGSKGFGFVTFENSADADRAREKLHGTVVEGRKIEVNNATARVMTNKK
Sequence,RBNS enrichment (R)
CUUGUAUCGAUCCUGCGAAUCAGUGAUUAUCUUUGUUGGAAAACCUUAUCAAAUGUGUCUGCAAAUCAAGAUGGUCUAAAGUGCAAGCCAGUUUUUUGUUUGCUUGUUUU,0.491
AAAUGUCUGGAAGGAAACACUGAAAUAAGAAUACAACAUUUCGGUGAAGAGCUGGAAACUUAAAAAAUUAUCAAAAGGAAUUUUGGUAUCAUCUUCAGAGAAAAAAUAAA,0.612
AUGGCAAUACUUUAGGGCAGAGAUAAAACCUUUUGGUAUUUUAGCUAGCCCCCAAAUCAAAAGCACUGUAUAGCAUUUCACACCGAGCCCCUCACCAAAACUCACACAGU,0.319
GGCUUUUAUGAUUCCAGUCUGCUGGUAUGAAGCAGAGCAUCAAAAAAAAUUCGUGAUUCCUUGAGUGUCCACACGUUUUGUCUUUGGGGGUUAAGGGUUGGGAUUUUGGG,0.69
GCCAUUUCUGGGGUUUGUCUGUUCUAUCUCCUGCCUACCAGUCGGUAUCUUCAGCUGUUUCUUCUAUUGCUGGAUUUUCUGUUCCUUUUCCCCAGUGUUCUGUUUUCUUU,0.378
UCACCUAUCCUCAGGCUCACAGUGGAAAUGUCCAGGGACAGGGCUGUUAGAAUGAGCUAAGGGAGACUGUUUUGCGUCCUGAGUUUCUAUUUCAUUGGAUCAGGAAAUCA,0.314
AUUUAUUUUUCUAUUAUAGCCAUAUUUAUAUAUUUAUGCACUUGUAAAUAAAUGUAUAUGUGUUUCUAUAAUUCUGGAGAGAUAUGGAAUCCUCCCCUUUCUGGCACAAG,0.585
AUGACCCCUUUGGGGAUCAAACUACGCUUUCACAGGGGUCACCAAGGACCAUUGGAAAACACAGAUUAUUUUAACGUUAUAAAAUUCACAUCAGGAGCAAAAUCACAGAU,0.421

# Set 4
# Target: Fragile X messenger ribonucleoprotein 1, C-terminal low-complexity region (Fmr1, Mus musculus, UniProt P35922)
# Technique: RNA Bind-n-Seq
# Molecule type: RNA
# Sample: in vitro
# Concentration: 200 nM
# Notes: whole 134-nt RNA, ends assumed
# Added: 150 mM KCl
# Baseline: input library
# Reading: higher = stronger binding
# Shared flanks, not repeated: GGGAGUUCUACAGUCCGACGAUC … UGGAAUUCUCGGGUGUCAAGG
Sequence,log2 enrichment
ACCAAAAAGGUGGGCAUCUUUGGGAAGUGGGGCAAGGGGGGGAUAGGGAGGGGGGUAACACUUUGGGAACAGGUGGUCCCAGGUCGUUUC,0.966
CUGUGCUACACAUCGUAUGUACCGAAUCGGUUUUUUUGGGGUUUUUUUGGUUUUUUUGGGGAAAGUAUUAUGUUACGCCGUUCGGAUCUG,-0.927
CAAGUCCUGUGCUACACAUCGUAUGUACCGAAUCGGUUUGGAAAAAAAGGUUUGGAAAGUAUUAUGUUACGCCGUUCGGAUCUGCACUUC,-1.04
UGGGAGGUGGAUUUUGUUUAUUUUUCUAGCUCAUUUCCAGGGGUGGGAAUUUUUUUUUAAUAUGUGUCAUGAAUAAAGUUGUUUUUGAAA,0.277
UAACUUUAGAGGAGGAUCUGAUGGAUAUGGCAGUGGACGUGGACUUGGGGAUGGCUAUAAUGGGUAUGGAGGAGGACCUGGAGGUGGCAA,0.21
UCAAGUCCUGUGCUACACAUCGUAUGUACCGAAUCGGGAGGGUUUUUGGGAGGGAAAGUAUUAUGUUACGCCGUUCGGAUCUGCACUUCC,1.21
CUGUGCUACACAUCGUAUGUACCGAAUCGGGUUUUUUUGGGUUUUUUUGGGUUUUUUUGGGAAAGUAUUAUGUUACGCCGUUCGGAUCUG,-0.738
AAUAACUGACGCUGCAUUUAAUUUUUUUGCCAGUUUAAAAUGUUUGUGUGUUUUUAUAGAUGAUUUUAACUGGUACAUAUUUUGAGUUAA,-1.11
UGGCCCUGGUGGCAGGCGGGGAGGAAGAGGUGGCCUCAUGGAUCGUGGUGGUCCCGGUGGAAUGUUCAGAGGUGGCCGUGGUGGAGACAG,0.433
